Assay results from different studies.
Parts stem from different laboratories: compare values within a part only.

Series 1
Target: Sal-like protein 4, full length isoform B (SALL4, Homo sapiens, UniProt Q9UJQ4-2, residues 1-616)
Technique: universal PBM
Form: double-stranded DNA, one strand shown
Medium: in vitro
Concentration: not given
Setting: 8-mer, flanks averaged, mean of replicates
Reading: higher = stronger binding
The E-score of `CTTAGCGA` is reported as -0.145.
`ATATAAGC` has an E-score of 0.319.
`CTGTATCC` has an E-score of 0.183.
`AAACCATT` has an E-score of 0.189.
For `ATATGGGC`, the E-score was 0.187.
`ACTATACT` has an E-score of 0.181.
`ACAGGGAT` has an E-score of -0.13.
With `GGGGCTTA` the E-score was -0.204.
`CAGCTCAG` has an E-score of -0.31.
For `AGGTAGGC`, the E-score was -0.077.
`CGATGCCA` gave an E-score of -0.195.
With `AACCCCCT` the E-score was -0.0958.
The E-score of `CGTATATC` is reported as 0.0715.
With `ATAAGGAC` the E-score was 0.114.
With `AAGGGGGC` the E-score was -0.219.
`GACCCGTA` has an E-score of -0.277.
With `GAGTACGC` the E-score was -0.211.
The E-score of `AACTCGCT` is reported as -0.017.
For `ACGCGCGA`, the E-score was -0.266.
`TAGATGCA` gave an E-score of 0.0629.

Series 2
Target: RING finger protein unkempt homolog, zinc fingers 1-6, GST-SBP tag (UNK, Homo sapiens, UniProt Q9C0B0, residues 30-357)
UniProt Q9C0B0, sequence (30-357, looked up): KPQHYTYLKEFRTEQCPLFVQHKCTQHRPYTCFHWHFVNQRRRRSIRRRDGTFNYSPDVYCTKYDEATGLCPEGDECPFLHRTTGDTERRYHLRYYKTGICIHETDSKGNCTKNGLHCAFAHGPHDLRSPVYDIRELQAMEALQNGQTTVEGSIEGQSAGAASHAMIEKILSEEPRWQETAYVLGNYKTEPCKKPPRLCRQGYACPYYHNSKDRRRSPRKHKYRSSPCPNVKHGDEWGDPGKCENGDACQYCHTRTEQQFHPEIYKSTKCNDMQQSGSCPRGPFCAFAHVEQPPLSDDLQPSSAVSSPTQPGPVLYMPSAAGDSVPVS
Technique: RNA Bind-n-Seq
Form: RNA
Medium: in vitro
Concentration: not given
Setting: RNA with constant flanks, human-mouse chimeric sites, ends assumed
Relative to: input RNA pool
Reading: higher = stronger binding
`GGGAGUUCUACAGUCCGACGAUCGGAAUUGCUGAUUCAAGUAAGUUUGAGUAUCACAAUGUUAGCUUUCUAAUUCCAUAAAAGUACUUGGUUUUUACAGUUUAUAAUCUGCAAUCCAUCAAGCGCCAUUUGUAAAGAGCAACUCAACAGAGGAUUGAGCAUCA` gave a bound/input enrichment of 0.369 ratio.
With `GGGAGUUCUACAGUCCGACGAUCAGUUCCAAACCACCAUCCAGAAAUGAAAUGAGAUUACCCAGACGAGCCAAAACAGCUGCGCUACAGAAAAGUAAACUUAACCUUGCAGAGUUCCUUAAUGAAGAUACAAGUUAAGAGAGCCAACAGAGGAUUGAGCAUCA` the bound/input enrichment was 0.227 ratio.
The bound/input enrichment of `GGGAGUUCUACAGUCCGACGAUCGCAGGAUCUUCUAAGUACCAGUGGGACAUUAUGAAAUCCCUUGGGCUCUCUGAUGACGACAUAGUGAAGUUUUCUGAAGCAGAACAUUGGCUUGAUUAUUUCCCACCACUGGCUAUUCAGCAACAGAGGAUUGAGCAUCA` is reported as 0.162 ratio.
With `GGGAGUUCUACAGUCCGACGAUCUUUGUUUUUAUGCUAAGCACGCGUGCUGGUGGUCUGGGCAUCAAUCUUGCAACUGCUGAUGUAGUCAUUUUAUAUGACUCAGAUUGGAAUCCGCAAGUUGAUCUUCAGGCUAUGGACCGUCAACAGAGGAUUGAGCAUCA` the bound/input enrichment was 0.125 ratio.
For `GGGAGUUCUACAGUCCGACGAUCUCUGGCCACACUCGUGUGUAUGGUGUUUGCUUUGUGGAUACUUCACUGGGCAAGUUUUUCAUCGGCCAGUUUUCGGAUGACCGCCACUGUUCCAGAUUUAGGACGCUAGUGGCUCACUAUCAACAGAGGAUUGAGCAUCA`, the bound/input enrichment was 0.209 ratio.
The bound/input enrichment of `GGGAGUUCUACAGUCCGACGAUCAAAGAGUGGAUAGAGUGUGCACACGGGAUCGGUUAUACCCGGGCGAAAAAGGAGUGCAAGAUAGAGUUCGAUGACUUCGAAGAGUGCUUGCUUCGGCACAAAACGAUGAGGCGAAUGCAUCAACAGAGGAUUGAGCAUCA` is reported as 0.424 ratio.
`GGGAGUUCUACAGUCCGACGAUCCAGGGCAUCAUCUCUCGAGCUGUUAAACACCUGUUCAAGAGUAUUGAUGAGAAAAAGACCUCAGCGAUUAAAAACGGGCUUCCUGCUCCUGAAUUCAAAGUGAAUGCCCAGUUCCUAGAGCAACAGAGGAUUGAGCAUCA` has a bound/input enrichment of 0.184 ratio.
`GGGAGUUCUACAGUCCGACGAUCCAGUCCCCGUGUCCCAGUGCAGGACGAUGUGAACAAAAACUCAAAGCGGACCCUCUAUUGUAGUUCUUGAUUCUCGAAAUGUGCUAUUGUUUUUAAACUUUUUUUUUUUUUUUUUAAAGACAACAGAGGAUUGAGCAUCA` has a bound/input enrichment of 0.59 ratio.

Series 3
Target: RNA binding protein fox-1 homolog 2, RRM domain, GST-SBP tag (RBFOX2, Homo sapiens, UniProt O43251-10, residues 100-194)
Technique: RNA Bind-n-Seq
Form: RNA
Medium: in vitro
Concentration: 365 nM
Setting: natural RNA segment, single round, ends assumed
Relative to: no-protein control
Reading: higher = stronger binding
Residues (chain): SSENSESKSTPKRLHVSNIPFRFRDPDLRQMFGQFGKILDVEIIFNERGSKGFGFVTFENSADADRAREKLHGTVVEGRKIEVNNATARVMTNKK
Under “RBNS enrichment (R)”, `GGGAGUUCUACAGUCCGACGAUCCUGUCAUCCACCUUGUACUAGAAAGUUUUAGCACUGAAUUAUUCCUUCUUCAUUGUUGUUUGUAUUUAUGAAAUUCUGAAAUUAUGGGGAAUCAGUGUACUGAUUAUGUUUGGAAUUCUCGGGUGCCAA` is recorded as 1.39.
Under “RBNS enrichment (R)”, `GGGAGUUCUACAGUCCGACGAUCUUAAAAAAUAUUCUGUUACACUACAGAUACCAAAACACUGACAAAGAUUUAGGCACUCCAAGAGAGUAUGACUUCGUGUUUAAUUGGGGAGCUUGUUUUCAACAUUGCUUUGGAAUUCUCGGGUGCCAA` is recorded as 0.395.
`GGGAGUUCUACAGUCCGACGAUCUUGUUGAGAAGCUUCUGUUUUAAGGAAUUUCUCCUUCUUGUCUCAUUCCUGCCUUUCCUGGGAAGGGCCUGGCCCUGAUCUAGAGUCUUAGCUAAGGAGCUGAGAAACAGUGGAAUUCUCGGGUGCCAA` — result for “RBNS enrichment (R)”: 0.297.
For `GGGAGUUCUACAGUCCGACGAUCCUCUGCAGAUGGUGAAGCCUUUGAGGCAGCCUCUUGCUUUCUCCUGUGGGUCCCUUGUGCCCACAGUGUGUAGAGAAGAGCAGGUGCAUGGGGCCAGGGGACCAAGAGUCUGGAAUUCUCGGGUGCCAA`, “RBNS enrichment (R)” read 4.06.
`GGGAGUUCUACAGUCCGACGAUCUAACUUGCUCUAUAUCUGUACAGAUUAUAAUCAAUAAGUGCACUAUUAUUAAAUGUUUAAAGUAAGGGAAAAGUCUGGGCUGCCUUCCUUAAUAUUGCAUCUCACUCCCAUGGAAUUCUCGGGUGCCAA` — result for “RBNS enrichment (R)”: 2.47.
Under “RBNS enrichment (R)”, `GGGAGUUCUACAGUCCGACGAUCGCUGCCCAAGAAAGCAUUACCCGCCCUCGGGGGGUCGGGCUGUGGGGGUCCCGGCACCUGGCGUGAGUUUCAUGUAUGAAAACAUAAAAUUGAAAAAAAAAAAAAAACCUUGGAAUUCUCGGGUGCCAA` is recorded as 0.666.
For `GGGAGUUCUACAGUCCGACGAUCAUGGGUCAGCCCUCACUGGGUGUCACACACUGAGAGAAGUCCUAUUGUAAAGAAACGGAAAAAGUCACAAAAAAGUUUGUAUAAAGACAUAUUUUUGUACUACAUGGGGAUGGAAUUCUCGGGUGCCAA`, “RBNS enrichment (R)” read 0.642.
`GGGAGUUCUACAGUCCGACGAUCCAGCCACACCUUGGUCCUCAUCUUGGUCCCUUCCAAUCUGAAACCUCGUGCCUGGCUCGUCUGCCACCUACAUUUCUCUUUCCAGCUGCUGUUUUGUAAAAAGAAAAAGAUGGAAUUCUCGGGUGCCAA` — result for “RBNS enrichment (R)”: 0.362.
Under “RBNS enrichment (R)”, `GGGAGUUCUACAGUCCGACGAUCUUGAAUUUUUUUCAGAUCCACUUAAAAUAUUUAGAAAAACAAGUUUUAUUCCUUAUGUGUCUUAUAAGGAAUAAAAUGGUCUUCAUUUGACACUUACUUUCCCAUGAACAUGGAAUUCUCGGGUGCCAA` is recorded as 0.429.

Series 4
Target: Ras GTPase-activating protein-binding protein 1, full length (G3BP1, Homo sapiens, UniProt Q13283)
UniProt Q13283, sequence (whole entry, looked up): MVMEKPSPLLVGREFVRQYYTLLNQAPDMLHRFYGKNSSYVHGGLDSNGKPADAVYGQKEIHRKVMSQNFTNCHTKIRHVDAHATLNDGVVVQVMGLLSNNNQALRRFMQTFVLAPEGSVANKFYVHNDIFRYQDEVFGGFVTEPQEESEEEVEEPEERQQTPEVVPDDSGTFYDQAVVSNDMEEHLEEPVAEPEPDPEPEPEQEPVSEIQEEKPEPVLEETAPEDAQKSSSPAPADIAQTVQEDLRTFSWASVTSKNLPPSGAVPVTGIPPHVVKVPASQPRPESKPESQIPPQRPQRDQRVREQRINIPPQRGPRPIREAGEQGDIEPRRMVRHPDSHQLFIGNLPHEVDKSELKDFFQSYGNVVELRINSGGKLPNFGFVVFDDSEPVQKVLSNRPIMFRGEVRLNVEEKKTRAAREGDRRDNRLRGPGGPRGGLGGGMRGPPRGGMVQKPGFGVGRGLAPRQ
Technique: RNA Bind-n-Seq
Form: RNA
Medium: in vitro
Concentration: 200 nM
Setting: whole 134-nt RNA, ends assumed
Together with: 150 mM KCl
Relative to: input library
Reading: higher = stronger binding
The log2 enrichment of `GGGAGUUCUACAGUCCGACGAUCUCCUCAAGUCCUGUGCUACACAUCGUAUGUACCGAAUCGGUGGGGUGGGUGGAAAGUAUUAUGUUACGCCGUUCGGAUCUGCACUUCCAGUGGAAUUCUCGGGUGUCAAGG` is reported as 0.336.
`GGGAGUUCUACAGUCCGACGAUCCACAGACAACACGCACCCACACAGACACAGAGGGAAGGGGUUGGGAUGGGGACAGGGUGCACAGCAGGGCGGGGAAGGACCCCAGCCCCUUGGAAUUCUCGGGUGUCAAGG` has a log2 enrichment of 1.88.
`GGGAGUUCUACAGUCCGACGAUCGCAGGAAGUAAAAACAAAUGGAAAUGCUUCGGAUAGUGGCAGGGGUGGGGGUUGCUAAGGAAAGGGUGGGAAAGGAGUGGGUAAAGAGUUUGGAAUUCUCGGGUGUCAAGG` has a log2 enrichment of 0.856.
For `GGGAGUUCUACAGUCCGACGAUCUCAAGUCCUGUGCUACACAUCGUAUGUACCGAAUCGGGAGGGUUUUUGGGUGGGAAAGUAUUAUGUUACGCCGUUCGGAUCUGCACUUCCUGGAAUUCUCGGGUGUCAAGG`, the log2 enrichment was 0.43.
`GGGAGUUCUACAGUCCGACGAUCUGGCCCUGGUGGCAUGCGGGGAGGAUGAGGUGGCCUCAUGGAUCGUGGUGGUCCCGGUGGAAUGUUCAGAGGUGGCCGUGGUGGAGACAGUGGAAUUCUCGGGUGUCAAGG` gave a log2 enrichment of 0.245.
`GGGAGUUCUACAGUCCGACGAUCCCUGUGCUACACAUCGUAUGUACCGAAUCGGGUUUUUUGGGGUUUUUUGGGUUUUUUGGGGAAAGUAUUAUGUUACGCCGUUCGGAUCUGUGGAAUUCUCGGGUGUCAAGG` gave a log2 enrichment of -0.574.
`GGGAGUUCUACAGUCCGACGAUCUUACUAGAAAAGGCAGAAGCCCGUGAACGUGAAAGAGAAAAAGAAGAGGCUCGGAAGAUGAAACGAAAAGAAUCUGCAUUUAAGAGUAUGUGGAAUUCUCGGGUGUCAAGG` gave a log2 enrichment of -1.43.
With `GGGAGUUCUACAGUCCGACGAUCAGUCCUGUGCUACACAUCGUAUGUACCGAAUCGGGGUUUUGGGUUUUGGGGUUUUGGAAAGUAUUAUGUUACGCCGUUCGGAUCUGCACUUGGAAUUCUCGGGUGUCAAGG` the log2 enrichment was -0.471.
`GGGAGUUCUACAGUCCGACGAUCCUCAAGUCCUGUGCUACACAUCGUAUGUACCGAAUCGGAAAGGUGGAAAAAGGAAAGUAUUAUGUUACGCCGUUCGGAUCUGCACUUCCAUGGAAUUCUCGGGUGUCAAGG` has a log2 enrichment of -0.594.
`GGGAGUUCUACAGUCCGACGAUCUGGUCCUGGUGGCAUGCGGGGAGGAAGAGGUGGCCUCAUGGAUCGUGGUGGUCCCGGUGGAAUGUUCAGAGGUGGCCGUGGUGGAGACAGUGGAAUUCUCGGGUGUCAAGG` gave a log2 enrichment of 0.318.

Some of these lines once more (series 1):
`CAGCTCAG` has an E-score of -0.31.
`CTGTATCC` has an E-score of 0.183.
`ACAGGGAT` has an E-score of -0.13.
`AAACCATT` has an E-score of 0.189.
The E-score of `CGTATATC` is reported as 0.0715.
